Published values of several laboratories.
Compare with care: the assays were run in different laboratories. “And” joins repeats or separate records; there may be more than shown. ± marks the error that the study gave.

SMILES | assay | test system | conditions | how to read | quantity | value
CO[C@H]1/C=C/O[C@@]2(C)Oc3c(C)c(O)c4c(O)c(c(/C=N/N5CCN(C)CC5)c(O)c4c3C2=O)NC(=O)/C(C)=C\C=C\[C@H](C)[C@H](O)[C@@H](C)[C@@H](O)[C@@H](C)[C@H](OC(C)=O)[C@@H]1C | – | healthy human subjects, plasma | oral, dose not given, 24 h, first dose, with: glecaprevir and pibrentasvir single dose | – | plasma concentration at 24 h | 206 ng/mL
CC(C)CCC[C@@H](C)[C@H]1CC[C@H]2[C@@H]3C(O)CC4=CC(=O)CC[C@]4(C)[C@H]3CC[C@]12C (stereo partly shown) | – | healthy human volunteers, plasma | dose not given, 0 h, baseline phase, no drug | – | plasma concentration | 64.6 ± 23.2 nM
Cc1ccc(C(=O)N(CCCN)C(c2nc3snc(C)c3c(=O)n2Cc2ccccc2)C(C)C)cc1 (stereo not shown) | – | human patients, plasma | intravenous, 13 mg/day, day 3 of induction course, geometric mean | – | plasma concentration at 24 h | 19 ng/mL
Cn1cc(Nc2nccc(-c3ccc4c(c3)CN(C3COC3)CC[C@H]4NC(=O)c3cn(C(C)(C)C)nn3)n2)cn1 | – | human, whole blood | 150 mg twice daily, day 14 | reference: pre-dose baseline | plasma cell count change | -79.2%
COc1cc(Nc2ncc3c(n2)-c2ccc(Cl)cc2C(c2c(F)cccc2OC)=NC3)ccc1C(=O)O | – | human patients, plasma | oral, 40 mg twice daily, day 7, 12 h, with: pembrolizumab | – | plasma concentration at 12 h | 512 ng/mL
O=C(c1cc(Cc2n[nH]c(=O)c3ccccc23)ccc1F)N1CCN(C(=O)C2CC2)CC1 | – | human | with: carboplatin | – | plasma protein binding | no effect
COc1cc2c(cc1OC)CN(CCc1ccc(NC(=O)c3cc(OC)c(OC)cc3NC(=O)c3cnc4ccccc4c3)cc1)CC2 | – | human, plasma | intravenous infusion, 5.9 mg/kg, 60 min | – | plasma concentration | 2360 nM
C[C@H](CCC(=O)O)[C@H]1CC[C@H]2[C@@H]3CC[C@@H]4C[C@H](OS(=O)(=O)O)CC[C@]4(C)[C@H]3CC[C@]12C | – | healthy human volunteers, plasma | dose not given, 0 h, baseline phase, no drug | – | plasma concentration | 305 ± 21 nM
Cn1cncc1[C@@](N)(c1ccc(Cl)cc1)c1ccc2c(c1)c(-c1cccc(Cl)c1)cc(=O)n2C | – | human | oral, tablets fed | reference: fasted state | plasma exposure increase | ~30%
C[C@H](CCC(=O)NCC(=O)O)[C@H]1CC[C@H]2[C@@H]3[C@H](O)C[C@@H]4C[C@H](O)CC[C@]4(C)[C@H]3CC[C@]12C | – | healthy human volunteers, plasma | dose not given, 0 h, baseline phase, no drug | – | plasma concentration | 404 ± 152 nM
C[C@@H](Oc1ccc(S(C)(=O)=O)cc1C(=O)N1C[C@@H]2C[C@]2(c2cc(C(F)(F)F)on2)C1)C(F)(F)F | item: 14C radioactivity | human, plasma | oral, 25 mg | reference: AUC(0-168 h) | plasma radioactivity share | 48.9%
O=C(O)CCCCCCCCCCCCCCCCC(=O)O | – | healthy human volunteers, plasma | dose not given, 0 h, control phase, probe drugs alone | – | plasma concentration | 81.6 ± 7.4 nM
CN1CCN(c2ccc(OC(F)(F)F)c(Nc3ncc4c(n3)-c3c(c(C(N)=O)nn3CCO)CC4)c2)CC1 | LC-MS/MS | human, plasma | oral, 12 mg/m2, 4 h post-dose | – | plasma concentration | 59.5 ng/mL and 98.5 ng/mL
